Results collected from several papers.
Protocols differ between the studies behind these lines. “And” joins repeats or separate records; there may be more than shown. ± marks the error that the study gave.
HTR2C: 5-hydroxytryptamine receptor 2C (HTR2C, Homo sapiens, UniProt P28335)
SULT1A1: Sulfotransferase 1A1 (SULT1A1, Homo sapiens, UniProt P50225)
Histone acetyltransferase type B catalytic subunit: Histone acetyltransferase type B catalytic subunit (Homo sapiens, UniProt O14929)
GUK1: GUK1 (Homo sapiens, UniProt Q16774)

SMILES = COc1cc(-c2nc(NC(=O)c3cc4cc(C)cc(C)c4n3CC(=O)O)sc2CCC2CCCCC2)c(OC)cc1Cl; target = Cholecystokinin receptor type A (CCKAR, Homo sapiens, UniProt P32238); test = antagonist, calcium flux; endpoint = IC50; value = 70 nM
SMILES = CC[C@@H]1[C@H](F)C(=O)N[C@@H]1COc1nccc2cc(C(N)=O)c(OC)cc12; target = Beta-adrenergic receptor kinase 1 (GRK2, Homo sapiens, UniProt P25098); test = ATP-site probe binding, ActivX profiling, measured: BARK1; system = THP-1 cell lysate; conditions = 0.04 mM, Lys2 site; endpoint = inhibition; value = 8%
SMILES = Oc1ccccc1-c1n[nH]cc1-c1ccnc2ccccc12; target = Protein kinase C-like 1 (Candida albicans, UniProt P43057); test = kinase binding, MIB/MS competition; system = Candida albicans lysate; conditions = 1 µM; scale = relative to: DMSO, negative = stronger binding; endpoint = log2 fold change; value = 0.04
SMILES = CC(C)OCCn1c(=S)[nH]c(=O)c2[nH]ccc21; target = Myeloperoxidase (MPO, Homo sapiens, UniProt P05164); test = inhibitor, cholesteryl ester hydroperoxide; conditions = 3.333 µM; scale = relative to: control; endpoint = LDL lipid peroxidation; value = 10.7% and 13.7% and 17.9% and 22.1%
SMILES = Cc1cc(-c2ccnc3[nH]cc(F)c23)cc(F)c1[C@@]1(O)[C@H](C)CN(C2CCS(=O)(=O)CC2)C[C@@H]1C; target = Aurora kinase B (AURKB, Homo sapiens, UniProt Q96GD4); test = ATP/ADP probe binding, KiNativ; system = HEK293T lysate; conditions = 0.1 µM, Lys1 peptide; endpoint = probe labelling inhibition; value = -14.5%
SMILES = NC(=O)C1=CN([C@@H]2O[C@H](COP(=O)(O)OP(=O)(O)OC[C@H]3O[C@@H](n4cnc5c(N)ncnc54)[C@H](O)[C@@H]3O)[C@@H](O)[C@H]2O)C=CC1; target = FSP1; test = oxidase activity, substrate, nitroblue tetrazolium superoxide; conditions = together with: atmospheric O2; endpoint = Km; value = 18 ± 5.6 µM
SMILES = CC(C)c1noc2ncc(C(=O)c3ccccc3O)cc12; target = OTOP1 (Homo sapiens, UniProt Q7RTM1); test = proton current, potentiator, whole-cell patch-clamp; system = HEK-293T; conditions = 10 µM, pH 5.5; scale = relative to: current before compound; endpoint = current potentiation; value = 1.63 fold
SMILES = CCc1cnn2c(NCc3ccc[n+]([O-])c3)cc(N3CCCC[C@H]3CCO)nc12; target = Bromodomain-containing protein 4 (BRD4, Homo sapiens, UniProt O60885); test = 19F NMR, measured: tyrosine 65; conditions = 94 µM; scale = relative to: free protein; endpoint = chemical shift change; value = 0.059 ppm
SMILES = Clc1cncc(OC[C@@H]2CN(CCN3CCc4ccccc43)CCO2)c1; target = HTR2C; test = radioligand binding; conditions = concentration not given, together with: [3H]mesulergine; endpoint = inhibition; value = 4.4%
SMILES = OCc1ccc(-c2nn(Cc3ccccc3)c3ccccc23)o1; target = SULT1A1; test = substrate, colorimetric; conditions = 100 µM; scale = relative to: benzyl alcohol; endpoint = relative sulfonation activity; value = < 2 fold
SMILES = O=C(CN1CCO[C@H](COc2ccccc2)C1)N1CCc2ccccc21; target = HTR2C; test = radioligand binding; conditions = concentration not given, together with: [3H]mesulergine; endpoint = inhibition; value = 42.6%
SMILES = [H]/N=C(/N)NCC(=O)O; target = Sodium- and chloride-dependent taurine transporter (SLC6A6, Homo sapiens, UniProt P31641, L306A); test = binding, microscale thermophoresis; conditions = 31.3 µM, room temperature, together with: 50 nM labelled protein; scale = higher = more binding; endpoint = normalised MST signal; value = 0.0233
SMILES = CCN1CCC[C@H]1CNC(=O)c1c(O)c(Cl)cc(Cl)c1OC; target = G-protein coupled receptor 171 (GPR171, Homo sapiens, UniProt O14626); test = β-arrestin recruitment, TANGO luminescence, measured: GPR171; conditions = concentration not given; scale = relative to: basal luminescence; endpoint = log2 fold change; value = 0.638
SMILES = C=CC(=O)N1CCC(COCC(=O)N2CCN(c3nc(-c4cnc(N)nc4C(F)F)nc(N4CCOC[C@@H]4C)n3)CC2)CC1; target = MAP kinase-interacting serine/threonine-protein kinase 2 (MKNK2, Homo sapiens, UniProt Q9HBH9); test = KINOMEscan; conditions = 1 µM; endpoint = remaining binding; value = 84%
SMILES = NC(=O)c1ccc[n+]([C@@H]2O[C@H](COP(=O)([O-])OP(=O)(O)OC[C@H]3O[C@@H](n4cnc5c(NCCNC(=O)CCCCCNC(=O)CCCCCNC(=O)CCCC[C@@H]6SC[C@@H]7NC(=O)N[C@@H]76)ncnc54)[C@H](O)[C@@H]3O)[C@@H](O)[C@H]2O)c1; target = Protein mono-ADP-ribosyltransferase PARP6 (PARP6, Homo sapiens, UniProt Q2NL67); test = substrate, DELFIA auto-modification; endpoint = apparent Km; value = 5 µM
SMILES = NC(=O)C1=CN([C@@H]2O[C@H](COP(=O)(O)OP(=O)(O)OC[C@H]3O[C@@H](n4cnc5c(N)ncnc54)[C@H](O)[C@@H]3O)[C@@H](O)[C@H]2O)C=CC1; target = xylose reductase, Scheffersomyces stipitis, adaptor-fused, on DNA origami; test = substrate, absorbance; conditions = together with: D-xylose; endpoint = Km; value = 240 ± 20 µM
SMILES = COc1cc(-c2cncc3c2CN(C)Cc2cc(N4CCNCC4)ccc2-3)cc(OC)c1OC; target = Calcium/calmodulin-dependent protein kinase type II subunit beta (CAMK2B, Homo sapiens, UniProt Q13554); test = kinase activity; conditions = 1 µM, human enzyme, together with: ATP 10 µM; scale = relative to: DMSO control; endpoint = remaining activity; value = 106%
SMILES = O=[N+]([O-])c1ccc(O[C@@H]2O[C@H](CO)[C@@H](O)[C@H](O)[C@H]2O)cc1; target = β-glucosidase (Thermomyces); test = Lineweaver-Burk plot, measured: p-nitrophenol; conditions = optimal pH and temperature; endpoint = Km; value = 28.6 mg/mL
SMILES = C[C@H](O)c1cnc(NS(=O)(=O)c2ccc(C(F)(F)F)c(Cl)c2)nc1; target = 17-beta-hydroxysteroid dehydrogenase 13 (Homo sapiens, UniProt Q7Z5P4); test = substrate, NADH fluorescence; endpoint = Vmax; value = 0.21 nM NADH/s/nM enzyme
SMILES = Cc1cccc(N2CC(C(=O)O)CC2=O)c1 (stereo not shown); target = Histone acetyltransferase type B catalytic subunit; test = binding, affinity selection mass spectrometry; scale = relative to: other proteins in batch; endpoint = fold enrichment; value = 1.1
SMILES = c1ccc(OC[C@@H]2CN(CCN3CCc4ccccc43)CCO2)cc1; target = 5-hydroxytryptamine receptor 7 (HTR7, Homo sapiens, UniProt P34969); test = radioligand binding; conditions = concentration not given, together with: [3H]LSD; endpoint = inhibition; value = 74.4%
SMILES = Cc1ccc(N2CC(C(N)=O)CC2=O)cc1 (stereo not shown); target = Histone acetyltransferase type B catalytic subunit; test = binding, affinity selection mass spectrometry; scale = relative to: other proteins in batch; endpoint = log fold enrichment; value = -0.0512
SMILES = COc1ccc2c(c1)C(=O)N(CCCN1CCN(c3ccccc3OC)CC1)C2; target = HTR2C; test = radioligand binding; conditions = concentration not given, together with: [3H]mesulergine; endpoint = inhibition; value = 65.6%
SMILES = CN1CCN(c2cc(-c3ccncc3)c(-c3ccc4ccccc4c3)nn2)CC1; target = Thromboxane A2 receptor (TBXA2R, Homo sapiens, UniProt P21731); test = agonist, FLIPR; conditions = 12.5 µM; endpoint = activation; value = -2.9%
SMILES = Nc1ncnc2c1ncn2[C@@H]1O[C@H](CO[P@](=O)(O)O[P@](=O)(O)O[P@@](=O)(O)S)[C@@H](O)[C@H]1O; target = GUK1; test = binding, isothermal titration calorimetry; conditions = molar ratio 0.09853, fitted curve; endpoint = ΔH; value = -1.98 kcal/mol
SMILES = CCC(=O)NCC[C@@H]1CCc2cc(O)c3c(c21)CCO3; target = SULT1A1; test = sulfation, substrate; conditions = 10 µM, pH 7.0, substrate 1; endpoint = Vmax; value = 7.86 ± 0.76 nmol/min/mg
SMILES = O=S(O)(O)=S; target = Uncharacterized protein (Pelagibacter ubique, UniProt Q4FKX4); test = differential scanning fluorimetry; system = Candidatus Pelagibacter ubique; conditions = in-house screen; endpoint = thermal shift; value = 5.01 °C
SMILES = O=c1nc(SCc2cc(F)cc(C(F)(F)F)c2)nc(SCc2csc3ccc(Cl)cc23)[nH]1; target = DNA topoisomerase 2-beta (TOP2B, Homo sapiens, UniProt Q02880); test = decatenation; conditions = 15.6 µM, replicate 1; endpoint = decatenated DNA; value = 4.3%
SMILES = O=S(=O)(O)C1CCNCC1; target = Sodium- and chloride-dependent taurine transporter (SLC6A6, Homo sapiens, UniProt P31641, G62A); test = binding, microscale thermophoresis; conditions = 488 nM, room temperature, together with: 50 nM labelled protein; scale = higher = more binding; endpoint = normalised MST signal; value = 0.0294
SMILES = COc1cc(O)c2c(c1)oc(=O)c1c3cc(O)c(O)cc3oc21; target = Alpha-glucosidase MAL12 (MAL12, Saccharomyces cerevisiae S288c, UniProt P53341); test = inhibitor, Lineweaver-Burk plot; conditions = enzyme-substrate complex binding; endpoint = Kis; value = 0.11 mM
SMILES = Nc1ncnc2c1ncn2[C@@H]1O[C@H](COP(=O)(O)CP(=O)(O)OP(=O)(O)O)[C@@H](O)[C@H]1O; target = P2X purinoceptor 1 (P2RX1, Homo sapiens, UniProt P51575, E282A); test = saturation binding; system = HEK293; conditions = 79 nM; endpoint = specific binding; value = 1500 CCPM and 1910 CCPM
SMILES = Oc1ccc(/C=C/c2cc(O)cc(O)c2)cc1; target = O-methyltransferase (Sorghum bicolor, UniProt A0A1B6PFV1); conditions = together with: 5'-methylthioadenosine 1 mM; endpoint = cooperativity factor; value = 16.8
SMILES = Nc1ccc(C(=O)O)cc1; target = BEST1, with wild-type BEST1 (Homo sapiens, UniProt O76090, Q293K); test = ion current, whole-cell patch clamp; system = HEK293 co-expressing mutant and wild-type; conditions = concentration not given, voltage 20 mV; endpoint = current density; value = 3.87 pA/pF and 2.44 pA/pF and 1.54 pA/pF and 3.16 pA/pF and 7.66 pA/pF and 2.76 pA/pF
SMILES = Nc1nc2c(ncn2[C@@H]2O[C@H](COP(=O)(O)O)[C@@H](O)[C@H]2O)c(=O)[nH]1; target = GUK1; test = enzyme activity, NADH-coupled; conditions = 2000 µM, together with: NaCl 50 mM; endpoint = reaction velocity; value = 0.089 µM/s and 0.115 µM/s and 0.0827 µM/s
SMILES = CC(Oc1ccccc1)C(=O)NCc1ccccn1 (stereo not shown); target = RFWD3 (Homo sapiens, UniProt Q6PCD5); test = binding, affinity selection mass spectrometry; scale = relative to: other proteins in batch; endpoint = fold enrichment; value = 0.748
SMILES = [Cl-].[K+]; target = GUK1; test = enzyme activity, NADH-coupled; conditions = 60 mM; endpoint = reaction velocity; value = -0.024 µM/s and 0.0298 µM/s and 0.0236 µM/s
SMILES = CCC1(O)CCCN(C(=O)c2ccc(-c3ccc(F)c(NC(=O)CCl)c3)cc2)C1 (stereo not shown); target = DNA dC->dU-editing enzyme APOBEC-3A (Homo sapiens, UniProt P31941); test = covalent modifier, intact protein mass spectrometry, measured: adduct +26309 Da; conditions = 500 µM, 3 h, 20-fold molar excess; endpoint = protein adduct; value = 47%
SMILES = CCS(=O)(=O)N1CC(CC#N)(n2cc(-c3ncnc4[nH]ccc34)cn2)C1; target = Alpha-1-acid glycoprotein 1 (ORM1, Homo sapiens, UniProt P02763); conditions = together with: Mg^2+; endpoint = change in binding constant; value = -56.8%
SMILES = O=C1c2ccccc2CCCN1CCCCN1CCN(c2ccccn2)CC1; target = 5-hydroxytryptamine receptor 2A (HTR2A, Homo sapiens, UniProt P28223); test = radioligand binding; conditions = concentration not given, together with: [3H]ketanserin; endpoint = inhibition; value = 89.2%
SMILES = Cc1cc(OCC(=O)NC(C)C)cc(C)c1Cl; target = Sodium-dependent neutral amino acid transporter B(0)AT1 (SLC6A19, Homo sapiens, UniProt Q695T7); test = membrane potential, FLIPR membrane potential; system = CHO-BC cells; conditions = concentration not given, first screen; scale = relative to: uninhibited control; endpoint = normalised transport activity; value = 0.651 and 0.829 and 0.57 and 0.779 and 0.666

Repeated from above:
SMILES = CC(C)c1noc2ncc(C(=O)c3ccccc3O)cc12; target = OTOP1 (Homo sapiens, UniProt Q7RTM1); test = proton current, potentiator, whole-cell patch-clamp; system = HEK-293T; conditions = 10 µM, pH 5.5; scale = relative to: current before compound; endpoint = current potentiation; value = 1.63 fold
SMILES = CCc1cnn2c(NCc3ccc[n+]([O-])c3)cc(N3CCCC[C@H]3CCO)nc12; target = Bromodomain-containing protein 4 (BRD4, Homo sapiens, UniProt O60885); test = 19F NMR, measured: tyrosine 65; conditions = 94 µM; scale = relative to: free protein; endpoint = chemical shift change; value = 0.059 ppm
SMILES = Clc1cncc(OC[C@@H]2CN(CCN3CCc4ccccc43)CCO2)c1; target = HTR2C; test = radioligand binding; conditions = concentration not given, together with: [3H]mesulergine; endpoint = inhibition; value = 4.4%
SMILES = OCc1ccc(-c2nn(Cc3ccccc3)c3ccccc23)o1; target = SULT1A1; test = substrate, colorimetric; conditions = 100 µM; scale = relative to: benzyl alcohol; endpoint = relative sulfonation activity; value = < 2 fold
